Assay results collected from several papers.
Compare with care: the assays were run in different laboratories.
Sequence of UniProt Q00536 (whole entry, looked up): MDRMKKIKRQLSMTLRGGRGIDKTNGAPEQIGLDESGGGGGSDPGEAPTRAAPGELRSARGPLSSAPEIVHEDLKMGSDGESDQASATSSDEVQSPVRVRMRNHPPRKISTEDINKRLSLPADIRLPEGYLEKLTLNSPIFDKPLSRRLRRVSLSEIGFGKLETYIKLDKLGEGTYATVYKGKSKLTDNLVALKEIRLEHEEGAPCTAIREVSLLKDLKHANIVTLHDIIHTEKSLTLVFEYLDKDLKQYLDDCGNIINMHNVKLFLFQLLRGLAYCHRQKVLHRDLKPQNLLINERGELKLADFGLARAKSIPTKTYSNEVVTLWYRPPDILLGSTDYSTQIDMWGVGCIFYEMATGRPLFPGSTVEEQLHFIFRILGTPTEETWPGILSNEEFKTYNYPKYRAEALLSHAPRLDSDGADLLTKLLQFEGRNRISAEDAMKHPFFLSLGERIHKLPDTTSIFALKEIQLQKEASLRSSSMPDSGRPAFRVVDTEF
Sequence of UniProt Q8NEV4 (whole entry, looked up): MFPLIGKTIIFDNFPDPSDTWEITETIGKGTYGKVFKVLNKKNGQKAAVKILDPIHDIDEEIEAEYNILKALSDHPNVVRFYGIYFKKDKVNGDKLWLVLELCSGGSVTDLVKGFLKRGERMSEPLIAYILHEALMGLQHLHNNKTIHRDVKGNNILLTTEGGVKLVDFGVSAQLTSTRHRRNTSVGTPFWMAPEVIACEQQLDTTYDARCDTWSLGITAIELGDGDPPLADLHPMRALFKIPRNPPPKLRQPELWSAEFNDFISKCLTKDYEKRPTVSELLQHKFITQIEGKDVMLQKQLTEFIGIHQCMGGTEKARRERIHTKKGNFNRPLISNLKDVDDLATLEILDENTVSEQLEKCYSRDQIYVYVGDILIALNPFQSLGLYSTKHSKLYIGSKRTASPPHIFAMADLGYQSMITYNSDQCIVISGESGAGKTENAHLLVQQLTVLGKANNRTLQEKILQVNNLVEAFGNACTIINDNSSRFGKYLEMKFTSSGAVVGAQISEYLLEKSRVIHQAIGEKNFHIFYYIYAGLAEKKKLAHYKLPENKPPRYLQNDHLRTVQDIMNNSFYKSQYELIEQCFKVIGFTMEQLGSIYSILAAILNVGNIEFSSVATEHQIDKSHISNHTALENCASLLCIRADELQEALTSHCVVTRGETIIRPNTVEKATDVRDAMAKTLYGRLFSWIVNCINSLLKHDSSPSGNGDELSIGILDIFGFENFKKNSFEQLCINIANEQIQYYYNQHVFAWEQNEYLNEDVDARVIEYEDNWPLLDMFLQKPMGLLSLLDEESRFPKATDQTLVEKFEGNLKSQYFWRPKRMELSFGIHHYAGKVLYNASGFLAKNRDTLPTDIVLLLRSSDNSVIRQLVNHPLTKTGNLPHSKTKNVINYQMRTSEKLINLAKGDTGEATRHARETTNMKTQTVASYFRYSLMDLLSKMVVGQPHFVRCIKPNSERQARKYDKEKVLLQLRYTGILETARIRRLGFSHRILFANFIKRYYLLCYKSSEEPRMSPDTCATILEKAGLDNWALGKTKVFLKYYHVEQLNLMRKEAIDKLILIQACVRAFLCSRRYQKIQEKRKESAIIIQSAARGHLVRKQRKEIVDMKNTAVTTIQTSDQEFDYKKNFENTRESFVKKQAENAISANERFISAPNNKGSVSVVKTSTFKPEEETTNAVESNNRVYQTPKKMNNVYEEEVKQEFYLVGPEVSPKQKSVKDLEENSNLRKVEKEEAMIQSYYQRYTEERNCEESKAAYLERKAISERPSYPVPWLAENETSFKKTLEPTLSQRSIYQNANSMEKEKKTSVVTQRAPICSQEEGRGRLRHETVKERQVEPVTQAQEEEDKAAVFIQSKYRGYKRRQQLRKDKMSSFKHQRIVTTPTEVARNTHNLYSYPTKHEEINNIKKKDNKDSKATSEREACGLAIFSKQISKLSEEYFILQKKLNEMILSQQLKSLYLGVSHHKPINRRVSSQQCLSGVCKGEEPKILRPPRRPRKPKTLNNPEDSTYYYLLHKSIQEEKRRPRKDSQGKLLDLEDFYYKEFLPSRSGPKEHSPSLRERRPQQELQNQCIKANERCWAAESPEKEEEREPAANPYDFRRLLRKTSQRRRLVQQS
Sequence of UniProt Q96GD4 (whole entry, looked up): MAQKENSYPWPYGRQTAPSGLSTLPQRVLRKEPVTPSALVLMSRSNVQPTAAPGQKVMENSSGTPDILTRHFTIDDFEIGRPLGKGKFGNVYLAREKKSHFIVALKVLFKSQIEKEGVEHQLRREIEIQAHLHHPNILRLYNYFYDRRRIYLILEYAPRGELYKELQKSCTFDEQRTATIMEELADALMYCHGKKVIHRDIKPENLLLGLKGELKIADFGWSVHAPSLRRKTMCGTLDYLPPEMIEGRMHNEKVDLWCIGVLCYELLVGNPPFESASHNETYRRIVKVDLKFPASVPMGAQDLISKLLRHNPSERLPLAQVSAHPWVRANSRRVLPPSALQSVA
Sequence of UniProt Q96NX5 (whole entry, looked up): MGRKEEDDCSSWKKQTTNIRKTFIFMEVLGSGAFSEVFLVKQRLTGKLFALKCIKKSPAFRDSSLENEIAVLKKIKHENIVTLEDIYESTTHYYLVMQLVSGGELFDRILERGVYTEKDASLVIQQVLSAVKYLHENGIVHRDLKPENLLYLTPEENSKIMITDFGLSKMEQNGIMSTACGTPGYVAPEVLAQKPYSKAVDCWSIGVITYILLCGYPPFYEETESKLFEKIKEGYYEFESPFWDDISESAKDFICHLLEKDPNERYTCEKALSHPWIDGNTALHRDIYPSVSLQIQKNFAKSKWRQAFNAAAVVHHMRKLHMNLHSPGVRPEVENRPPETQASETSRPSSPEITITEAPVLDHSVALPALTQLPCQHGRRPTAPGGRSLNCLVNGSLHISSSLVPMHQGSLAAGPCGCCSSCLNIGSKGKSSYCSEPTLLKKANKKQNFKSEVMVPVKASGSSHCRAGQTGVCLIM
Sequence of UniProt Q8WTQ7 (whole entry, looked up): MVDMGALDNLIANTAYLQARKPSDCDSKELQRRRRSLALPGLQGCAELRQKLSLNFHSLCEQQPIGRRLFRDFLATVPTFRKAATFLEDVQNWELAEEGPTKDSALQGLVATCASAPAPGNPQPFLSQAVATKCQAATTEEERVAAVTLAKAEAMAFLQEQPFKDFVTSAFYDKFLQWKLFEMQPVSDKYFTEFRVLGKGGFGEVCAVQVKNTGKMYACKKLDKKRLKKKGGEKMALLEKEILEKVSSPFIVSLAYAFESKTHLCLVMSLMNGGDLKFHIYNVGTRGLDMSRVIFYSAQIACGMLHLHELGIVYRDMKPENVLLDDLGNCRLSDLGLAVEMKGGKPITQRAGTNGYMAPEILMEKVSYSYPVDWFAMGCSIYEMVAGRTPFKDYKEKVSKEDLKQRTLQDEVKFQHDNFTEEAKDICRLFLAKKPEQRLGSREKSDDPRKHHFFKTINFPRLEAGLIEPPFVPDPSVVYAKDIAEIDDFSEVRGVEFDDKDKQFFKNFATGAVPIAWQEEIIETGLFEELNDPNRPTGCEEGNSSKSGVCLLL

COc1ccc(NC(=O)c2c(Nc3ccccc3)sc(C#N)c2NC(=O)CNc2ccccc2[N+](=O)[O-])cc1 has a viability of 86.5% (HCT-116; cell growth or viability, SRB; 100 µM, 48 h).
The viability of C=CCNC(=S)NNC(=O)COc1ccc2c(C)c(CC)c(=O)oc2c1C is reported as 20.4% (MDA-MB-231; cell growth or viability, MTT; 125 µg/mL).
With CC(=O)Nc1cccc(-n2c(=O)n(C3CC3)c(=O)c3c(Nc4ccc(I)cc4F)n(C)c(=O)c(C)c32)c1 the viability was 51.1% (SW1417; cell growth or viability, resazurin; 0.1 µM, 72 h).
O=C(Nc1ccccc1)Nc1ccc(Oc2nnc(-c3ccc(Cl)cc3)c3ccccc23)cc1 has a viability of 4.83% (HepG2; cell growth or viability, MTT; 10 µM, 24 h).
With COc1ccc(NC(=O)c2c(Nc3ccccc3)sc(C#N)c2NC(=O)CNc2ccc(C)cc2)cc1 the viability was 68.4% (HCT-116; cell growth or viability, SRB; 10 µM, 48 h).
With CC(C)(C)c1nc(-c2cccc(NS(=O)(=O)c3c(F)cccc3F)c2F)c(-c2ccnc(N)n2)s1 the viability was 68.5% (SK-MEL-23; cell growth or viability, MTT; 0.4 µM, 48 h).
COc1ccc(NC(=O)c2c(Nc3ccccc3)sc(C(=O)NN=Cc3ccccc3)c2NC(C)=O)cc1 gave a viability of 93.5% (HCT-116; cell growth or viability, SRB; 10 nM, 48 h).
For CC(=O)Nc1ccc(Oc2nnc(-c3ccc(Cl)cc3)c3ccccc23)cc1, the viability was 99.4% (HepG2; cell growth or viability, MTT; 78 nM, 24 h).
The viability of Cc1c(Cc2ccccc2)c(=O)oc2c(C)c(OCC(=O)NN=Cc3ccco3)ccc12 is reported as 1.83% (MDA-MB-231; cell growth or viability, MTT; 250 µg/mL).
O=C(Nc1ccc(Oc2nnc(-c3ccc(Cl)cc3)c3ccccc23)cc1)c1ccccc1 has a viability of 32.5% (HepG2; cell growth or viability, MTT; 0.312 µM, 24 h).
With COc1ccc(NC(=O)c2c(Nc3ccccc3)sc(C#N)c2NC(=O)CNc2ccccc2Cl)cc1 the viability was 80.3% (HCT-116; cell growth or viability, SRB; 100 µM, 48 h).
CCc1c(C)c2ccc(OCc3nnc(S)n3N)c(C)c2oc1=O gave a viability of 2.9% (MDA-MB-231; cell growth or viability, MTT; 250 µg/mL).
With Cc1cc([C@@H](C)Nc2ccccc2C(=O)O)c2nc(N3CCC(F)(F)CC3)c(C#N)c(=O)n2c1 the remaining binding was 60% (Cyclin-dependent kinase 16 (CDK16, Homo sapiens, UniProt Q00536); binding, competition with immobilised ligand; 1 µM).
With Cc1ccc(C(CS(=O)(=O)c2ccccc2)=NNc2nc(-c3ccc(OCCCCOc4ccc(-c5csc(NN=C(CS(=O)(=O)c6ccccc6)c6ccc(C)cc6)n5)cc4)cc3)cs2)cc1 the viability was 75.9% (SK-MEL-23; cell growth or viability, MTT; 0.4 µM, 48 h).
With CNc1ncc2c(/C=C/C(=O)N3CCC(OC)CC3)nn(Cc3cccc(C(F)(F)F)c3)c2n1 the remaining activity was 81% (Aurora kinase B (AURKB, Homo sapiens, UniProt Q96GD4); enzyme activity, inhibitor, radiometric; 1 µM).
Cc1noc(NS(=O)(=O)c2ccc(N=NN(O)c3ccccc3)cc2)c1C has an inhibition of 24.1% (DPPH scavenging, absorbance; 240 µg/mL).
For CCc1c(C)c2ccc(OCC=Cc3ccccc3)c(C)c2oc1=O, the viability was 100% (MDA-MB-231; cell growth or viability, MTT; 31.25 µg/mL).
COc1ccc(NC(=O)c2c(Nc3ccccc3)sc(C(=O)NN=Cc3ccc(Br)cc3)c2NC(C)=O)cc1 gave a viability of 91.3% (HCT-116; cell growth or viability, SRB; 10 nM, 48 h).
For Cc1cccc(N(O)N=Nc2ccc(S(=O)(=O)Nc3onc(C)c3C)cc2)c1, the inhibition was 26.3% (DPPH scavenging, absorbance; 120 µg/mL).
COc1cc(-c2cncc3c2CN(C)Cc2cc(N4CCNCC4)ccc2-3)cc(OC)c1OC gave a remaining activity of 102% (Calcium/calmodulin-dependent protein kinase type 1G (CAMK1G, Homo sapiens, UniProt Q96NX5); enzyme activity, inhibitor; 1 µM).
CCCCC(=O)Nc1ccc(-c2ccc3ncn(CCC)c(=O)c3c2)cn1 has a remaining binding of 100% (Myosin-IIIa (MYO3A, Homo sapiens, UniProt Q8NEV4); binding, competition with immobilised ligand; 0.5 µM).
COc1ccc(NC(=O)c2c(Nc3ccccc3)sc(C#N)c2NC(=O)CNc2ccc(OC)c(OC)c2)cc1 gave a viability of 50.3% (HCT-116; cell growth or viability, SRB; 100 µM, 48 h).
CC(=NNC(N)=S)c1ccc(Nc2nnc(-c3ccc(Cl)cc3)c3ccccc23)cc1 gave a viability of 8.46% (HepG2; cell growth or viability, MTT; 0.312 µM, 24 h).
With CCCOc1ccc2c(C)c(CC)c(=O)oc2c1C the viability was 99.8% (MDA-MB-231; cell growth or viability, MTT; 62.5 µg/mL).
O=C(Nc1ccc(Oc2nnc(-c3ccc(Cl)cc3)c3ccccc23)cc1)c1cccc([N+](=O)[O-])c1 has a viability of 67.7% (HepG2; cell growth or viability, MTT; 0.625 µM, 24 h).
The remaining binding of C=CC(=O)N1CCC(COCC(=O)N2CCN(c3nc(-c4cnc(N)nc4C(F)F)nc(N4CCOC[C@@H]4C)n3)CC2)CC1 is reported as 100% (Rhodopsin kinase GRK7 (GRK7, Homo sapiens, UniProt Q8WTQ7); binding, competition with immobilised ligand; 1 µM).

Some of these lines once more:
Cc1noc(NS(=O)(=O)c2ccc(N=NN(O)c3ccccc3)cc2)c1C has an inhibition of 24.1% (DPPH scavenging, absorbance; 240 µg/mL).
For CCc1c(C)c2ccc(OCC=Cc3ccccc3)c(C)c2oc1=O, the viability was 100% (MDA-MB-231; cell growth or viability, MTT; 31.25 µg/mL).
COc1ccc(NC(=O)c2c(Nc3ccccc3)sc(C(=O)NN=Cc3ccc(Br)cc3)c2NC(C)=O)cc1 gave a viability of 91.3% (HCT-116; cell growth or viability, SRB; 10 nM, 48 h).
